Measurements collected from several papers.
Numbered parts are unrelated; each lists some results of a single study. Substitutions count along the parent as printed.

Set 1
Target: ABI1, truncated, D143A, DHFR fusion (Arabidopsis thaliana)
Technique: DHFR PCA, deep sequencing
Matrix: yeast
Notes: methotrexate growth selection, single substitutions
Together with: (+)-ABA 4.8 µM
Reference: wild-type fitted maximum
Reading: higher = stronger binding
Starting sequence: PYL1, truncated, DHFR fusion (Arabidopsis thaliana); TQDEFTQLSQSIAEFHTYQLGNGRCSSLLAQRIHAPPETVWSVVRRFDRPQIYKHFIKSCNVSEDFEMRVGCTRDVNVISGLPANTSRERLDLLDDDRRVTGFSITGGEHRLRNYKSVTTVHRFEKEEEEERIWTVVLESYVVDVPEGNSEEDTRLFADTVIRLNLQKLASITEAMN
Variant	relative binding score [%]
E139G	-1.88
P50G	-1.89
V118F	-0.552
A35T	24.4
N22C	60.1
T73N	38.2
A30D	19.4
F66G	69.9
N114G	56
T120P	0.692
R32V	76
V161H	0.815
K58R	69.3
R98V	25.9
E109R	27.1
L94D	-9.3

Set 2
Target: RING finger protein unkempt homolog, zinc fingers 1-6, SBP tag (UNK, Homo sapiens, UniProt Q9C0B0, residues 30-357)
Sequence of UniProt Q9C0B0 (30-357, looked up): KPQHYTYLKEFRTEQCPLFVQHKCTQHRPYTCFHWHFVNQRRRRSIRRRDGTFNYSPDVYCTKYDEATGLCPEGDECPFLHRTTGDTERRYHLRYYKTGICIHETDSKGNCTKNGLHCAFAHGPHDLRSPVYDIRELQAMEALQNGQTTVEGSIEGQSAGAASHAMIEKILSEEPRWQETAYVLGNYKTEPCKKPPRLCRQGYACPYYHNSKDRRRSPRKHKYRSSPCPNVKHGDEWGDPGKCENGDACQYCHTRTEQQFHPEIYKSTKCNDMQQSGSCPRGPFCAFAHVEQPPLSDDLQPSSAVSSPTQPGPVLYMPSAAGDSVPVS
Technique: RNA Bind-n-Seq
Molecule type: RNA
Matrix: in vitro
Concentration: 100 nM
Notes: RNA with constant flanks, vertebrate orthologous sites, ends assumed
Reference: input RNA pool
Reading: higher = stronger binding
All sequences stand within: GGGAGUUCUACAGUCCGACGAUC … CAACAGAGGAUUGAGCAUCA
Strand	bound/input enrichment [ratio]
GUUAGGACAUGACCCUUAUCGGUUAGGUCAUGAUGCCUAUAGGUUAGGACAGGACCCGUAUAGAUUAGGCCAUGAUCCCUACAGACUAACUCCUGAUCCCUAUAGAAUGUCACCUAGACC	0.766
UUGUUUUUAUUUUUUUUAACUUCCUUAAUUCUUCCUUACUUCCUUUUAUUUUUGUUUUUGGUAGUUAUUGUUACCAUGCCAUUUUACGUCUCCUUCACUGAAGGGCUAGAGUUUUAACUU	2.81
AUCUAUACACUUUUAAAGAUAACUUCCUUAUAAGAUGUUUUGGCUAGUCAUAUUUAAUCGUAUUUAUAUAUCUAUUUUUUAUAAUAGCAGUGUAGAUUCCAAGGGGCCUCCUUUCGGGUU	0.647
GUCCCUCAGUGACAGUAUGCCAUCUGUAGCCGAUUCCCACUCUAGUCACUUUUCUGAAUUUAGUUGUUCUGACCUUGAAAGCAUGAAAACUUCAUGUAGUCAUGGUUCCAGUGAUUACCA	3.76
CUUAAUUAGAGGGUAGUAUAUGUUUCAUAAAGAAGAGUCUUUAUAAUUUUGUUGGUCAUAUAGUAUUUUGGAAUUUGUAUAAUGAGGAUGUUUAGAAGCCAUAUCUAUGGCUUUUUUUAA	0.48
UCUGGACAACUGUCUAUGAAGGUAUAACUAUUUCAUCUCCCACCUGGAAGACCAAAAGGUCGGCUUUAUUUGUUGAUUGUAGUGGUACCCCAAAGCUGCACUGCCGUUCUUGGAUGUUUG	0.296
CUACAAUAAUGAAAAACCUACCAGGAAUUUUUUUAUUUUUCAUUUCCCCUUAGGCAUUCCUAGUCUUUUUCCCCCCAGGCAGAUCAUUCUGAGUGUGCGAGUGUGUGUGCACAUGUUACA	0.815
GAAUUGAAAAACCAGAGCUUCACCCAGGCCCCUGUUCACUAGGAGAUACAAAUAUUACAUUAGAAGAACAAUUAAACUCCAUAAAUUUAUCUUUUCAGGAUGAUCCAGAAUCCAGUACCA	1.4
AGAACAUUUUAACCAAGAAUCUGAAGGUAGAAAUACAGGACCAUGGUUAUCUUCCUCAUUUAGAAAUAGAUGCACACCUUUGUUUUCUAGAAGGAGGCGAGAGGGAAGAGAUGAGUCUUC	0.672
AAACUAUGCUGGUGCACGGUCCUGUGACCAGUGCCCUCCGCCCCUCUUUACACCACUGUCCUACCUACAGGAAUUUAAUAUUUUUAAAGUUUUACAAUACUGUAUAUUCAAAGAUUUGUU	0.342
AGCACCCUUUCAUACUGUCCUGGACCAGGGCCACAGACCGACAUCUCAAGCGGCCUGUGUUUAGAACAUUUUUUACAUCAUUGUGUCUGAGCCUCUCAGAGCCAGUGUAUAGGUCUUUGC	0.796

Set 3
Target: RNA binding protein fox-1 homolog 2, RRM domain, GST-SBP tag (RBFOX2, Homo sapiens, UniProt O43251-10, residues 100-194)
Technique: RNA Bind-n-Seq
Molecule type: RNA
Matrix: in vitro
Concentration: 365 nM
Notes: natural RNA segment, single round, ends assumed
Reference: no-protein control
Reading: higher = stronger binding
All sequences stand within: GGGAGUUCUACAGUCCGACGAUC … UGGAAUUCUCGGGUGCCAA
Residues (chain): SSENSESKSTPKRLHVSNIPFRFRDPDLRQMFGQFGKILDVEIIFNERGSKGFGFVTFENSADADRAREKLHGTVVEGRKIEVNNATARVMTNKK
Strand	RBNS enrichment (R)
GGUGUGGCAGCUGAGGAAUUGGGUUUCGGGGAGAGUGACUUUUUAAAAAGGACUUAAUUUCUACUACUGCACUAUCUGUUGUGAGAUAAUUAAACAUGCUAUUUAAUUGU	0.769
GUUGUUAGGUUUUCGUGUAAGACUCUUGCUGUAUCGUGACAGCUGUGAUUGGUGAGUUGACCGUCCUGGCUGCCAGUUACACUGCGAUUGUAACAACAUUUUUACUUUCU	0.313
GCAGCUCCCCAGUGGACAGUGUCAUUGUGCCCAGAGUGCUGCAAGGUGAGGCCUGCUGUGCUGCCCGCACACCUGAGUGCAAAACCAAGCACUGUGGGCAUGGUGUUUCC	0.232
CCAAGCAGUCGAUGUCAAGGUUACGACACCAGUGACAGAGCAUGGUUUGGAAAUCCUUUAUUCUCUUUUCUCAAUACCAAGUGGUGCCUUACUGUGGCAGCAGUGUCACU	0.648
CCUGGAAAGAGGCAGUCUUCUUAGCAUGGUGAGCUGAGUUCAUGGCUUUUUUUUGUAGCCAGUCCUGUCCCUGGCCAUCCAUGUGAUGGUUUUGGAUGGAGUUAAACUUG	0.511
AUUUUUUUUUAAAUAUAUUUGAUGACAUAAUUUUUGUGUAGUUUAUUUAUCUUGUACAUAUGUAUUUUGAAAUCUUUUAAACCUGAAAAAUAAAUAGUCAUUUAAUGUUG	0.581
GUCUGGUCUCCCUGCUCUUUCUGCAUGGUUGUGUCCCUAGUCCUAAGCUUUGGUUCUUUAGGGUGACUGUGGUAAGAAGGAUAUUUAAUCAUGACAUGCACGGACACGUA	0.7
AAACCACUCCAGCUGUUAAUCUGUUUGCGCCUCCAUCCAUGGACUUGUUUCUGUUCUUUUCCAUCCACUUUGUACUCAUUUGUUUUCAUUAAAUUUUGCAUUUAUUUUGA	9.38
ACUGGAACGUCCUCACAGGGAUGAAGGAAUUCUUUCUUUCCCACAGGAAAGGUGCUACUGUGUGGGUCUGGAACCUGUGAAUGAAUCACUCCUGGGGUUUCGUUUCUAUG	0.315
UAAUCAGCUGGGCGUGGUGGCUCACGCCUGUAAUCCCAGCACUUUGGGAGGCCAAGGUAGGUGGAUACCUGAGGUCAGGAGUUCAAGACCAGCCUGGCCAACAUGGUGAA	0.245
AUAUCAAUUUCUUAAAGAACACAAAAUGUUUCCUCCCUAGCAAAACUAUUUAAGAGCCAAUUAAACUAUGAAAUAGUUAUAAAAUUAUUUUUAAUAUUUAAGGCCUUGAA	0.9
AUCGUGCAAGCUCUGUCAUAAUCUGCAUCUUCCCAGCAGCCUGGUACCCCAGGUUCCUGUAACUCCCUGCCUCCUCCUCUCUUCUGCUGUUCUGCUCCUCCCAGACAGAG	2.24

Set 4
Target: PABPC1L2, full length, GST fusion (mouse, UniProt A0ABA7IW68)
Technique: RNAcompete
Molecule type: RNA
Matrix: in vitro
Concentration: 20 nM
Notes: 7-mer, probes averaged, single round
Reference: mean of 7-mers
Reading: higher = stronger binding
Residues (chain): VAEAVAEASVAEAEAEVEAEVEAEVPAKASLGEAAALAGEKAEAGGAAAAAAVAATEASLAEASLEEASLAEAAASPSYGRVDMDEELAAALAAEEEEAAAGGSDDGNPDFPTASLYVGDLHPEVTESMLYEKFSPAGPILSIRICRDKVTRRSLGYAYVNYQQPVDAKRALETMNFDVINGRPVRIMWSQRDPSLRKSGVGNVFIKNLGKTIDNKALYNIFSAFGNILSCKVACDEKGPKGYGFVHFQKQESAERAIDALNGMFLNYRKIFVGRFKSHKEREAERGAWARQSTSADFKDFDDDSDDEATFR
Strand	7-mer Z-score
UAUGAAA	0.624
CAAAAUC	1.02
GCCCCGU	-0.364
CUUUAGG	0.115
GGCGUAU	-0.104
AUUGAGG	0.202
GACGCCG	-0.219
GAUCCCA	-0.269
ACAUUGC	0.00617
GCAGACG	0.276
GUGACGA	0.211
CGAUCCC	-0.405
UUCAGAA	0.0297
UCAUGGG	0.0623
CCAAUCA	-0.0464
UUAGUCU	-0.304
CUUACAG	-0.197
GCAGAUU	0.0533
GCGUCGU	-0.449
CGCAUUA	-0.222
ACGCAUG	-0.182
GUAUUAU	-0.195
GCCCAUU	-0.231

Set 5
Target: CCNA1, cyclin fold, Cln2 fusion (human)
Technique: yeast growth competition, sequencing
Matrix: yeast
Notes: weak parent motif
Reference: not given
Reading: higher = stronger binding
Starting sequence: PKN2 docking peptide (human); DSTVTKLDFDLEP
Variant	normalised enrichment score
T3A	-0.204
V4A	0.00552
P13A	-0.18
L11A	-0.063
S2A	-0.495
T5A	-0.283
E12A	-0.269

Repeated from above (set 2):
Strand	bound/input enrichment [ratio]
CUACAAUAAUGAAAAACCUACCAGGAAUUUUUUUAUUUUUCAUUUCCCCUUAGGCAUUCCUAGUCUUUUUCCCCCCAGGCAGAUCAUUCUGAGUGUGCGAGUGUGUGUGCACAUGUUACA	0.815
GAAUUGAAAAACCAGAGCUUCACCCAGGCCCCUGUUCACUAGGAGAUACAAAUAUUACAUUAGAAGAACAAUUAAACUCCAUAAAUUUAUCUUUUCAGGAUGAUCCAGAAUCCAGUACCA	1.4
AGAACAUUUUAACCAAGAAUCUGAAGGUAGAAAUACAGGACCAUGGUUAUCUUCCUCAUUUAGAAAUAGAUGCACACCUUUGUUUUCUAGAAGGAGGCGAGAGGGAAGAGAUGAGUCUUC	0.672
AAACUAUGCUGGUGCACGGUCCUGUGACCAGUGCCCUCCGCCCCUCUUUACACCACUGUCCUACCUACAGGAAUUUAAUAUUUUUAAAGUUUUACAAUACUGUAUAUUCAAAGAUUUGUU	0.342
